Measurements pooled from the literature.
pIC50: −log10 of the molar value.
Cell line: MOLT-4

SMILES | assay | setting | how to read | quantity | result
N#Cc1c(N)nc2c(c1-c1ccc(CO)o1)CCc1cc(O)ccc1-2 | cell growth or viability, ATP luminescence | – | – | pIC50 | 5.49
C1=[N+]2CCCC[N+]3=Cc4ccc5[n]4[Au-]23[n]2c1ccc2-c1nc2ccccc2nc1-5.F[P-](F)(F)(F)(F)F | – | NCI60 five-dose screen | – | TGI | 4 -log M
CC[C@H](CO)Nc1nc(NCc2ccc(-c3ccccn3)cc2)c2ncn(C(C)C)c2n1 | TMT mass spectrometry proteomics, refers to: CENPE protein | 1 µM, 1 h | baseline: DMSO | log2 fold change | -0.546
COc1cc(C(=O)N/N=C/c2cccc3ccccc23)cc(OC)c1OC | cell growth or viability, MTT | 48 h | – | pIC50 | 7.27
Cc1sc2c(c1C)C(c1ccc(Cl)cc1)=N[C@@H](CC(=O)NCCCCCCCCC(=O)N1CCN(C(=O)c3cc(Cc4n[nH]c(=O)c5ccccc45)ccc3F)CC1)c1nnc(C)n1-2 | cell growth or viability, ATP luminescence | 72 h | – | pIC50 | 6.86
N#Cc1c(N)nc2c(c1-c1ccc[nH]1)Cc1cc(O)ccc1-2 | cell growth or viability, ATP luminescence | – | – | pIC50 | 5.43
Cc1ccc([N+](=O)[O-])cc1S(=O)(=O)N(C)/N=C/c1cnc2ccc(Br)cn12 | cell growth or viability | – | – | pIC50 | 6.28
CN1CCC(N[C@H]2CCc3[nH]c4c(C(N)=O)ccc(-c5ccccc5Cl)c4c3C2)CC1 | cell growth or viability | – | – | pIC50 | 5.75
N#Cc1c(N)nc2c(c1-c1cccs1)Cc1cc(O)ccc1-2 | cell growth or viability, ATP luminescence | – | – | pIC50 | 4.42
CNS(=O)(=O)Nc1nccc(Cc2c(C)c3ccc(Oc4ncccc4F)cc3oc2=O)c1F | cell viability | 7 days | – | pIC50 | < 6.00
NC(=O)c1ccc(-c2ccccc2Cl)c2c3c([nH]c12)CC[C@@H](N)C3 | cell growth or viability | – | – | pIC50 | 7.61
COc1ccc2c(c1)Cc1c-2nc(N)c(C#N)c1-c1ccc(CO)o1 | cell growth or viability, ATP luminescence | – | – | pIC50 | 5.29

For quick reference, copied from above:
SMILES | assay | setting | how to read | quantity | result
C1=[N+]2CCCC[N+]3=Cc4ccc5[n]4[Au-]23[n]2c1ccc2-c1nc2ccccc2nc1-5.F[P-](F)(F)(F)(F)F | – | NCI60 five-dose screen | – | TGI | 4 -log M
